Measured values from different studies.
Numbered parts are unrelated; each lists some results of a single study. “And” joins repeats or separate records; there may be more than shown.
Chain of UniProt Q9UM73 (whole entry, looked up): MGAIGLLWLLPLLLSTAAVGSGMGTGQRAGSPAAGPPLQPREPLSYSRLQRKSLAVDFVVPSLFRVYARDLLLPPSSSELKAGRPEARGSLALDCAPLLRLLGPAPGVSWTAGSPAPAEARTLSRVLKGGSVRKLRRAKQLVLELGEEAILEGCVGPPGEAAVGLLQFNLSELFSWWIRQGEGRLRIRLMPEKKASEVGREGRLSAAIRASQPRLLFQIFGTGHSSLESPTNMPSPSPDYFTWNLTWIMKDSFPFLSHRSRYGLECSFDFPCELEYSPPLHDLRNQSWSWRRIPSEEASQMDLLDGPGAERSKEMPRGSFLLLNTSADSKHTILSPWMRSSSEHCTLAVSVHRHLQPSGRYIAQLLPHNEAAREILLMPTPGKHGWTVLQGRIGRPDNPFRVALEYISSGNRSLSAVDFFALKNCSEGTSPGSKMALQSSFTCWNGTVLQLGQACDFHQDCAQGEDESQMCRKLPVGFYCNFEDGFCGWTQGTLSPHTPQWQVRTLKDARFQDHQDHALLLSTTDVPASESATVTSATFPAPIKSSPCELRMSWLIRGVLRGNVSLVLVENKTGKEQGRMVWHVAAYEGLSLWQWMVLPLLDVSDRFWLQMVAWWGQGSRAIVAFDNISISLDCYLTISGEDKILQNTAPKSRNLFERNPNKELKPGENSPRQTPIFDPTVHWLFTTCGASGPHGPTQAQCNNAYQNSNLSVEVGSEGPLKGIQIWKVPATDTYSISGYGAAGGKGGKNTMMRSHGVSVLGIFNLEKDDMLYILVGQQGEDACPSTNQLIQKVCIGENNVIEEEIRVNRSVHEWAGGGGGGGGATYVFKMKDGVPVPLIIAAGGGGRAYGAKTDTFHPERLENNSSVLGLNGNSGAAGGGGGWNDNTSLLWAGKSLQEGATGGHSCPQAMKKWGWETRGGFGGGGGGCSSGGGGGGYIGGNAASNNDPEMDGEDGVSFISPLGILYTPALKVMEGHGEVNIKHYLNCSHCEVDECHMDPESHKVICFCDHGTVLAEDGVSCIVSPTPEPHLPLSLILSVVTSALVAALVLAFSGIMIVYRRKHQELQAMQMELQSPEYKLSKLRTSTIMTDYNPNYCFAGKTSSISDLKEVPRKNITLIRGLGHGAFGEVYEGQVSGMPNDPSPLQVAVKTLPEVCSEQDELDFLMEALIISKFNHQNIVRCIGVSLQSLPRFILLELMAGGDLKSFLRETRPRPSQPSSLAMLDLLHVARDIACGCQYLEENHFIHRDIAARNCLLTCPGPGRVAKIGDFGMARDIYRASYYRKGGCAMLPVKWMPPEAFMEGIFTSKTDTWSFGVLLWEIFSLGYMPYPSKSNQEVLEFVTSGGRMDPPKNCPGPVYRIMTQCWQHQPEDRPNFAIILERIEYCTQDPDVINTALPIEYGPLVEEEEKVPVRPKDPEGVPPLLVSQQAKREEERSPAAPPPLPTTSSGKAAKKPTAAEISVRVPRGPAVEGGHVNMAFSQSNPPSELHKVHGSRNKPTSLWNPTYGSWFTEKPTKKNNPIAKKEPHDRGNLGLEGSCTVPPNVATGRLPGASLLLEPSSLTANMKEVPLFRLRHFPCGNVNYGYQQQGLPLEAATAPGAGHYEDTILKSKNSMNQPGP
Chain of UniProt Q9H2K8 (whole entry, looked up): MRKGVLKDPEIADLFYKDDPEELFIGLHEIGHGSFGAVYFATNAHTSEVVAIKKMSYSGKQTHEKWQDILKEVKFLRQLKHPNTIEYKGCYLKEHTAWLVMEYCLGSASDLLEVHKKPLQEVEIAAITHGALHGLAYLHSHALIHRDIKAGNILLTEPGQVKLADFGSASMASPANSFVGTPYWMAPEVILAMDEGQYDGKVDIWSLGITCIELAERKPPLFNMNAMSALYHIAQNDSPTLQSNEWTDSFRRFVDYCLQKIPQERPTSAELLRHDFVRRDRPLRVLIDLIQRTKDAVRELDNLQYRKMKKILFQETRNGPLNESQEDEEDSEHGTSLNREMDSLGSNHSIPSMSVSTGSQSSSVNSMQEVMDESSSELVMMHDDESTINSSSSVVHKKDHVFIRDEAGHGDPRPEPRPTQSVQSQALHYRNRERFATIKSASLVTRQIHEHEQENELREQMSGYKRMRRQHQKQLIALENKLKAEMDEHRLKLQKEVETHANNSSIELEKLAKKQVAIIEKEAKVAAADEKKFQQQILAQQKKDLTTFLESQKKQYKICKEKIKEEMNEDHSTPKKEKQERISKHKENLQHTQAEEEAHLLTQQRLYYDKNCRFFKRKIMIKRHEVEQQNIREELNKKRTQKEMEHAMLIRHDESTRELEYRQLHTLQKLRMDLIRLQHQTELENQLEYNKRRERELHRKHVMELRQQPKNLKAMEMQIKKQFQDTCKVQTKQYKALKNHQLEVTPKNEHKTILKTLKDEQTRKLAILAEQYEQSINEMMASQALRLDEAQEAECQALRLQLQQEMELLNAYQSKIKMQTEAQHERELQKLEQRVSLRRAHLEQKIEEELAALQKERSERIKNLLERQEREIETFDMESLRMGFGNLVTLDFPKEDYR
Chain of UniProt P04049 (whole entry, looked up): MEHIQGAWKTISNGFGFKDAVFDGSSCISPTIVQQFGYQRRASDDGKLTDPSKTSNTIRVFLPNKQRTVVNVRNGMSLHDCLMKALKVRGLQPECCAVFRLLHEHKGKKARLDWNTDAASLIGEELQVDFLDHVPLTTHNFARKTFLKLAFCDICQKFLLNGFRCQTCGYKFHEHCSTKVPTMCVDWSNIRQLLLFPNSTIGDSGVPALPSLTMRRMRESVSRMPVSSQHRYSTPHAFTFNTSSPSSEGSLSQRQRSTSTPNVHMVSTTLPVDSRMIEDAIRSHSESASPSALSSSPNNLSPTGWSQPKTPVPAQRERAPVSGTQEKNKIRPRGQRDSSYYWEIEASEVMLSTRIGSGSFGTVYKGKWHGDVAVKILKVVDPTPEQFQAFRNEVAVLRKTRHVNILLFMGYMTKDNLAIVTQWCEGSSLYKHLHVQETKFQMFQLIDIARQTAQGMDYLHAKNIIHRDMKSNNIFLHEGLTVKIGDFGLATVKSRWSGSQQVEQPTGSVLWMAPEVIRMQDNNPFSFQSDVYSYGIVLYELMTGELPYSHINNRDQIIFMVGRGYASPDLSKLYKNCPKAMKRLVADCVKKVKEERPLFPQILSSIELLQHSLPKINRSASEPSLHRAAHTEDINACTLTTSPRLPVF
Chain of UniProt Q9H2G2 (whole entry, looked up): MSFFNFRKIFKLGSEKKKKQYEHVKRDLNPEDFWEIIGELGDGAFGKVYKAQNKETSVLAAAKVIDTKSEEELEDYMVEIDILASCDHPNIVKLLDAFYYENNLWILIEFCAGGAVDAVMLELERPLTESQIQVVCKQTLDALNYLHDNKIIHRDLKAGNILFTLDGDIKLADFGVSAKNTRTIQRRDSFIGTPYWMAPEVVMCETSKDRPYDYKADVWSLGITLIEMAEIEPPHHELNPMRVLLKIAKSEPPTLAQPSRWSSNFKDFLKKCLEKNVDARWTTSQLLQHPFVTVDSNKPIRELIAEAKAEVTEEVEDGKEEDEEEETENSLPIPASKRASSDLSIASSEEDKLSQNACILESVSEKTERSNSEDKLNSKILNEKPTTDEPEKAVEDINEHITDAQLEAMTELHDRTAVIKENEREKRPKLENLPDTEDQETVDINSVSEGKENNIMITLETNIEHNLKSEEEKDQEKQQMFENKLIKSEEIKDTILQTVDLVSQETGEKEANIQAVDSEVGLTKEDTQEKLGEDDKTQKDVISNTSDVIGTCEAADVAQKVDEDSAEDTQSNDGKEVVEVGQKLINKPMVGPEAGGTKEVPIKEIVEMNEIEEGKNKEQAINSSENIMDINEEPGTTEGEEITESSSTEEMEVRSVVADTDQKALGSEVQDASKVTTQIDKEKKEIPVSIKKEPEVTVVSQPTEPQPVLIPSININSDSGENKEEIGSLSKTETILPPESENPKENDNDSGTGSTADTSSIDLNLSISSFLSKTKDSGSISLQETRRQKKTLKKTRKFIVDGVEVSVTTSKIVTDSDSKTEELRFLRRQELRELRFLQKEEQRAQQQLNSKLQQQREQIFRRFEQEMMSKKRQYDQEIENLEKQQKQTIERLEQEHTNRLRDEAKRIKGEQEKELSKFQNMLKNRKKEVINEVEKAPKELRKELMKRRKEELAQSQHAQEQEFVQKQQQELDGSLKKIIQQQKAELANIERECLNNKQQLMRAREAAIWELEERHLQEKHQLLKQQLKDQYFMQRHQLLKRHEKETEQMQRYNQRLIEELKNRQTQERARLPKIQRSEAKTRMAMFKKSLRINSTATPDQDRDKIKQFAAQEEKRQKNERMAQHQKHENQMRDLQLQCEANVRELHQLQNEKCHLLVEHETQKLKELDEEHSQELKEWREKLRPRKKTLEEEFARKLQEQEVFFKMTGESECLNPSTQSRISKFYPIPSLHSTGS
Chain of UniProt P48729 (whole entry, looked up): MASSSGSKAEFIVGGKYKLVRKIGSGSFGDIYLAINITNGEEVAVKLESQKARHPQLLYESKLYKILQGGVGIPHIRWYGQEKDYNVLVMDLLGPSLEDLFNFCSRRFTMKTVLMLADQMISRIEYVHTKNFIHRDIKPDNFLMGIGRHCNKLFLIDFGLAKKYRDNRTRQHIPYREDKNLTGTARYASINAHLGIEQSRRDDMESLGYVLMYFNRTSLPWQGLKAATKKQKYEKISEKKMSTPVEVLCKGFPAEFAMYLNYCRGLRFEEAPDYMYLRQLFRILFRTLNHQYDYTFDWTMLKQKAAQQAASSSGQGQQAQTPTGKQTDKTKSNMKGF

Block 1 — read-out: enzyme activity; tested at: 5 µM
SMILES: O=C(Nc1cnn(-c2csc(C(=O)NC3COC3)c2)c1)Nc1c(F)cccc1Cl
target | assay | how to read | remaining activity
RAF1 (Homo sapiens, UniProt P04049) |  | reference: untreated control | 88.1%
TAOK3 (Homo sapiens, UniProt Q9H2K8) |  | reference: untreated control | 88%
TESK2 (Homo sapiens, UniProt Q96S53) |  | reference: untreated control | 78.6%
SYK (Homo sapiens, UniProt P43405) |  | reference: untreated control | 86.9%
SLK (Homo sapiens, UniProt Q9H2G2) |  | reference: untreated control | 94.6%
MAP2K2 (Homo sapiens, UniProt P36507) |  | reference: untreated control | 87.9%
Cyclin-dependent kinase 2, with cyclin O (CDK2, Homo sapiens, UniProt P24941) | inhibitor |  | 94.1%
SBK1 (Homo sapiens, UniProt Q52WX2) | inhibitor |  | 97.7%
ITK (Homo sapiens, UniProt Q08881) |  | reference: untreated control | 92.3%
CSNK1A1 (Homo sapiens, UniProt P48729) |  | reference: untreated control | 74.4%
RIPK4 (Homo sapiens, UniProt P57078) | inhibitor |  | 96.7%
DSTYK (Homo sapiens, UniProt Q6XUX3) | inhibitor |  | 95.5%
MYLK4 (Homo sapiens, UniProt Q86YV6) |  | reference: untreated control | 90.8%
ALK (Homo sapiens, UniProt Q9UM73) |  | reference: untreated control | 84.2%
NEK4 (Homo sapiens, UniProt P51957) |  | reference: untreated control | 89.1%

Block 2 — sample: plasma; route: oral
SMILES: COc1ccc(-c2c(Nc3ccccn3)[nH]c3c(C4=CCCCC4)c(-c4ccccc4)nn3c2=O)cc1
assay | test system | conditions | plasma concentration, mean
 | human patients | 200 mg once daily, 4 h, cycle 1 | 6430 ng/mL
 | human patients | 200 mg once daily, 24 h, cycle 1 | 6430 ng/mL
 | cancer patients | 150 mg, 0 h post-dose, single dose | 0 ng/mL
LC-MS/MS | human | 200 mg twice daily, 24 h, single dose | 1100 ng/mL
LC-MS/MS | human | 200 mg twice daily, 8 h, single dose | 1510 ng/mL
 | human patients | 150 mg once daily, 4 h, cycle 1 | 5440 ng/mL
LC-MS/MS | human | 50 mg once daily, 2 h, cycle 1 | 1320 ng/mL
 | cancer patients | 50 mg, 6 h post-dose, single dose | 400 ng/mL
 | human patients | 150 mg once daily, 0.5 h, cycle 1 | 4890 ng/mL
LC-MS/MS | human | 200 mg twice daily, 72 h, single dose | 456 ng/mL
 | human patients | 200 mg once daily, 8 h, cycle 1 | 6470 ng/mL
LC-MS/MS | human | 200 mg twice daily, 6 h, single dose | 1600 ng/mL
 | cancer patients | 200 mg, 72 h post-dose, single dose | 462 ng/mL
 | cancer patients | 100 mg, 0 h post-dose, single dose | 0 ng/mL
 | human patients | 100 mg once daily, 0.5 h, cycle 1 | 3300 ng/mL

Block 3 — cell line: mouse MPNST tumor cells; method: high-content immunofluorescence imaging; item: nuclear SOX9; tested at: 10 µM; time: 12 h; notes: mean of 2 replicates; reference: DMSO control; direction: higher = more nuclear SOX9
SMILES | nuclear SOX9 intensity
Cc1cc(-c2ccc(CC(=O)Nc3ccc(-c4cccnc4)cc3)cc2)ccn1 | 159 % of DMSO
NCCc1c[nH]cn1 | 93.9 % of DMSO and 107 % of DMSO
COc1cc2ncn(-c3cc(OCc4ccccc4S(C)(=O)=O)c(C#N)s3)c2cc1OC | 100 % of DMSO
Cc1noc(NS(=O)(=O)c2cccc3c(N(C)C)cccc23)c1C | 101 % of DMSO
CC[C@H]1Cn2nc(-c3ccc(Cl)cc3Cl)c3nc(C)cc(c32)N1CC1CC1 | 134 % of DMSO
CC(C)(C)c1cc(C(=O)C=Cc2ccc(C(=O)O)cc2)cc(C(C)(C)C)c1 | 96.8 % of DMSO
CCCN(CCC)CCc1cccc2c1CC(=O)N2 | 104 % of DMSO
CCOC(=O)Nc1ccc2c(c1)N(C(=O)CCN1CCOCC1)c1ccccc1S2 | 86.2 % of DMSO
CN(C)CC(c1ccc(O)cc1)C1(O)CCCCC1 (stereo not drawn) | 91 % of DMSO

Block 4 — read-out: enzyme activity; action: inhibitor; tested at: 0.5 µM; reference: control
Target: Serine/threonine-protein kinase pim-2 (PIM2, Homo sapiens, UniProt Q9P1W9)
Chain of UniProt Q9P1W9 (whole entry, looked up): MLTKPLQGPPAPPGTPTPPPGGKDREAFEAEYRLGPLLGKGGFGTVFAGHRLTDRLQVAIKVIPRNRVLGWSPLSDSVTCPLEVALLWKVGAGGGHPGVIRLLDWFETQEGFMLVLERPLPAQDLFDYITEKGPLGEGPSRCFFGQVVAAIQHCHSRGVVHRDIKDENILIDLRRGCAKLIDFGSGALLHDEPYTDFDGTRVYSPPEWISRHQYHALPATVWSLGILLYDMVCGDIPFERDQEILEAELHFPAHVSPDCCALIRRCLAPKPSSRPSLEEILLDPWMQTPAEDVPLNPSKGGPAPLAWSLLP
SMILES | remaining activity
Cc1cncc2cccc(S(=O)(=O)N3CCCN(C(=O)CN)C[C@@H]3C)c12 | 104%
CC#CC(=O)Nc1cc2c(Nc3ccc(F)c(Cl)c3)ncnc2cn1 | 111%
COc1ccc(S(=O)(=O)N(CCO)c2ccccc2CN(C)CC=Cc2ccc(Cl)cc2)cc1 | 99.7%
Oc1ccc(Nc2nc(-c3ccc(Cl)cc3)cs2)cc1 | 106%
CSc1nc(-c2ccnc(N[C@@H](C)c3ccccc3)c2)c(-c2ccc(F)cc2)[nH]1 (racemic) | 87.9%
CC(C)(C)n1nc(Cc2cccc3ccccc23)c2c(N)ncnc21 | 94.1%
O=S(=O)(NCCNC/C=C/c1ccc(Br)cc1)c1cccc2cnccc12 | 104%
Cc1cc(Nc2nc(-c3ccccc3)nc3ccccc23)n[nH]1 | 92.7%
N#CC(=C(N)Sc1ccc(N)cc1)c1ccccc1C(F)(F)F | 103%
NC(=O)c1ccc(N(C(N)=O)c2c(F)cccc2F)nc1-c1ccc(F)cc1F | 98.3%
Cc1ccc(NC2=CC(=O)c3sc(C)nc3C2=O)cc1 | 103%
Nc1nccc(-c2c(-c3ccc(F)cc3)ncn2C2CCNCC2)n1 | 100%
O=C1Cc2c([nH]c3ccc([N+](=O)[O-])cc23)-c2ccccc2N1 | 113%
CC(=O)c1ccc(N2CCOCC2)cc1O | 117%
CC[n+]1c(/C=C/N(C)c2ccccc2)n(-c2ccccc2)c2ccc(-c3nc4ccccc4s3)cc21 | 117%
O=C1NC(=O)C(c2c[nH]c3ccccc23)=C1c1c[nH]c2ccccc12 | 105%
Fc1ccc(-c2nc3n(c2-c2ccncc2)CCS3)cc1 | 121%
Nc1ncnc2c1cnn2-c1ccccc1 | 98.2%
CCCC(=O)Oc1ccc2[nH]c(C(=O)c3cc4ccccc4[nH]3)cc2c1 | 101%
Nc1nc(Nc2ccc(S(N)(=O)=O)cc2)nn1C(=O)c1c(F)cccc1F | 113%
CCc1[nH]c(-c2ccc(OC)cc2)nc1-c1ccncc1 | 105%

For quick reference, copied from above (block 4):
SMILES | remaining activity
Oc1ccc(Nc2nc(-c3ccc(Cl)cc3)cs2)cc1 | 106%
CSc1nc(-c2ccnc(N[C@@H](C)c3ccccc3)c2)c(-c2ccc(F)cc2)[nH]1 (racemic) | 87.9%
CC(C)(C)n1nc(Cc2cccc3ccccc23)c2c(N)ncnc21 | 94.1%
O=S(=O)(NCCNC/C=C/c1ccc(Br)cc1)c1cccc2cnccc12 | 104%
Cc1cc(Nc2nc(-c3ccccc3)nc3ccccc23)n[nH]1 | 92.7%
N#CC(=C(N)Sc1ccc(N)cc1)c1ccccc1C(F)(F)F | 103%
NC(=O)c1ccc(N(C(N)=O)c2c(F)cccc2F)nc1-c1ccc(F)cc1F | 98.3%
